Measurements pooled from the literature.
Each line is one published result; not all experiments were run side by side. Values joined by “and” are separate records of one study, mostly repeats; a detail may differ. ± marks the error that the study gave.
Sequence of UniProt P09598 (whole entry, looked up): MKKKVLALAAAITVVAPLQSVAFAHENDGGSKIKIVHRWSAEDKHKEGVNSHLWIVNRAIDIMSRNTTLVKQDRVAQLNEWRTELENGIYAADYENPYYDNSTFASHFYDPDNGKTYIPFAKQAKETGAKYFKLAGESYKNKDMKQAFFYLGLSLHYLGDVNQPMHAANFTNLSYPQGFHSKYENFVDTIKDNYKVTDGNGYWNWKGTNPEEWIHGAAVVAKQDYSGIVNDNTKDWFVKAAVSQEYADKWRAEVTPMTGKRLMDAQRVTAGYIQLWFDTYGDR
Sequence of UniProt P23443 (whole entry, looked up): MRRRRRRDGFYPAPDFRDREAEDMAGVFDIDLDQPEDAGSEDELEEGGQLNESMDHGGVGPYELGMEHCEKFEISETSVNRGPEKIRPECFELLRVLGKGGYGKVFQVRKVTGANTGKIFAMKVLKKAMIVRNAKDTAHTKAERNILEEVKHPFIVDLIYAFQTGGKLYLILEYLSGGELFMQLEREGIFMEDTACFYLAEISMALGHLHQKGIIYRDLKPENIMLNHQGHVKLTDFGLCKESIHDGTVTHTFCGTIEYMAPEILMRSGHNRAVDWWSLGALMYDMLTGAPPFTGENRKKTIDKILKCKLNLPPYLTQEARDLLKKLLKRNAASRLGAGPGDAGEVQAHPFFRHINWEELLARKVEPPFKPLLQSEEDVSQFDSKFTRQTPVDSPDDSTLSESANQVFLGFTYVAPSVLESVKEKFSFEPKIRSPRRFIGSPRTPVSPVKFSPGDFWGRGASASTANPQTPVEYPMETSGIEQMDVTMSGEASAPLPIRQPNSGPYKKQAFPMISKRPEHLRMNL

COc1ccccc1-c1n[nH]c2nc(N[C@H]3CC[C@H](NS(=O)(=O)CC(C)C)CC3)ncc12  relative abundance (bead binding, competition bead pull-down, refers to: LMJF.35.0370; Leishmania donovani extract; 10 µM; relative to: vehicle): 0.91
CC[C@H](C)[C@H](NC(=O)[C@H](C)NC(=O)CNC(=O)[C@H](Cc1ccccc1)NC(=O)[C@H](CC(N)=O)NC(=O)[C@H](CC(N)=O)NC(=O)[C@H](CO[C@@H]1O[C@H](CO)[C@@H](O)[C@H](O)[C@H]1NC(C)=O)NC(=O)[C@H](CO)NC(=O)[C@H](Cc1c[nH]cn1)NC(=O)[C@@H](NC(=O)[C@H](CC(C)C)NC(=O)[C@H](Cc1ccccc1)NC(=O)[C@H](CC(N)=O)NC(=O)[C@H](C)NC(=O)[C@@H](N)CC(C)C)C(C)C)C(=O)N[C@@H](CC(C)C)C(N)=O  viability (INS-1; MTT; 5 equivalents to hIAPP, 24 h, together with: hIAPP 1 µM): 73%
COc1ccccc1-c1ccncc1C(=O)Nc1nnc(OCc2ccc(Cl)cc2)s1  colony survival (DLD-1 BRCA2-/-; 8 µM, single replicate; relative to: untreated): 9.09% and 8.62% and 8.45%
CS(C)(=O)=Nc1ccc(-c2ccc(-c3nc4cc(O[C@@H]5CO[C@H]6[C@@H]5OC[C@H]6O)[nH]c4cc3F)cc2)cc1  inhibition (Phospholipase C (Bacillus cereus, UniProt P09598); enzyme activity, inhibitor; 10 µM): 43%
Cc1c(Cl)c(=O)oc2cc(OCCCCCC[Se]C#N)ccc12  GI50 (T47D; cell growth or viability, SRB): 54 µM
CC(=O)NCSC[C@H](NC(=O)[C@@H]1CCCN1C(=O)[C@H](C)NC(=O)[C@@H](NC(=O)CNC(=O)[C@@H](NC(=O)[C@H](Cc1c[nH]c2ccccc12)NC(=O)[C@H](C)NC(=O)CNC(=O)[C@H](CO)NC(=O)[C@H](C)NC(=O)[C@@H]1CCCN1C(=O)[C@H](Cc1c[nH]c2ccccc12)NC(=O)[C@H](C)NC(=O)[C@H](C)NC(=O)[C@@H](N)Cc1ccc(O)cc1)[C@@H](C)O)[C@@H](C)O)C(=O)N[C@@H](CO)C(=O)N[C@@H](C)C(=O)NCC(=O)N[C@H](C(=O)NCCOCCOCCOCCOCCOCCOCCOCCOCCOCCOCCOCCOCCC(=O)N[C@@H](CS)C(N)=O)[C@@H](C)O  selectivity ratio (Calu-3; phage binding; relative to: targeting over control phage): 1.6 ± 0.29
CC(C)(C)C(=O)OCOP(=O)(OCOC(=O)C(C)(C)C)C1CCCN(O)C1=O (stereo not drawn)  TGI (KM12): 13.3 µM
CN(C)[C@H]1C[C@@]23CC[C@@]4(O2)C(=CC[C@]2(C)[C@@H](c5ccc6ccncc6c5)CC[C@H]24)C=C3[C@@H](O)[C@@H]1O  inhibition (Ribosomal protein S6 kinase beta-1 (RPS6KB1, Homo sapiens, UniProt P23443); ATP probe labelling, inhibitor, KiNativ profiling; 0.1 µM): -15.5%
CC1CCC2C(C)C(OC(=O)CCC(=O)N3CCC(Nc4ccc(S(=O)(=O)NC(=O)c5ccc(N6CCN(CC7=C(c8ccc(Cl)cc8)CC(C)(C)CC7)CC6)cc5Oc5cnc6[nH]ccc6c5)cc4[N+](=O)[O-])CC3)OC3OC4(C)CCC1C32OO4 (stereo not drawn)  necrotic cells (THP-1; annexin V/PI flow cytometry, refers to: annexin V-/PI+; 1.6 µM, 24 h): 1%
O=C(C[Se]C(=O)c1ccco1)Nc1cccc(C(F)(F)F)c1  CC50 (NCI60 leukaemia subpanel; NCI60 five-dose screen): 100 µM
CC(CO)C1CN2C(=O)[C@H](CC(=O)O)NC(=O)CC(CC3CC3)NC(=O)[C@H](CCC(=O)O)NC(=O)CNC(=O)[C@H]([C@@H](C)O)NC(=O)[C@H](CCC(=O)O)NC(=O)[C@@H]2C1(F)F (stereo partly drawn)  TNF-alpha protein level (RAW264.7; ELISA; concentration not given, together with: LPS): inhibited
O=C1NC2(CC2)COc2ncc(F)cc2[C@H]2COCCN2c2ccn3ncc1c3n2  organ-to-brain weight ratio (Sprague-Dawley rat, male, kidneys; oral, 5 mg/kg/day, 4 weeks dosing, end of recovery): 156 ± 16.1%
NC(=S)N/N=C/c1ccc(OCc2ccccc2)cc1  glutathione peroxidase activity (OD450) (IMR-32; refers to: GPX3; 400 µg/mL, 24 h; higher = more activity): 0.157 a.u.
COc1ccccc1-c1n[nH]c2nc(NC3CCN(C(=O)Cc4ccc(F)cc4F)CC3)ncc12  relative abundance (bead binding, competition bead pull-down, refers to: LINJ.29.0950; Leishmania donovani axenic amastigote extract; 10 µM; relative to: vehicle): 0.91
O=C(C[Se]C(=O)c1cccs1)Nc1cccc(C(F)(F)F)c1  GI50 (NCI60 melanoma subpanel; cell growth, inhibitor; five-dose): 1.63 µM

Some of these lines once more:
NC(=S)N/N=C/c1ccc(OCc2ccccc2)cc1  glutathione peroxidase activity (OD450) (IMR-32; refers to: GPX3; 400 µg/mL, 24 h; higher = more activity): 0.157 a.u.
